Experimental data gathered from unrelated publications.
Parts stem from different laboratories: compare values within a part only. Substitutions count along the parent as printed.

Study 1 — technique: protein binding microarray; molecule type: double-stranded DNA, one strand shown; sample: in vitro; tested at: not given; reference: not given; reading: higher = stronger binding
Target: Histone acetyltransferase KAT6A, winged helix 2, GST fusion (KAT6A, Homo sapiens, UniProt Q92794, residues 85-181)
Setting: 8-mer, flanks averaged, mean of 2 arrays, mostly near background
Construct (chain): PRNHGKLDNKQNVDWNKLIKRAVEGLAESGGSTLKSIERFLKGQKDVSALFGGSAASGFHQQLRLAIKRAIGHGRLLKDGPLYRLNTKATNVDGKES
Oligonucleotide	E-score
GTATCACA	-0.0231
GGGTCAGA	-0.0212
CCTTTGAA	0.0353
GACTGTCA	-0.165
ACCCCACC	0.238
GCGAATAA	-0.0584
GGGAGACC	-0.146
ACAACTCT	-0.0195
AGAACTGC	-0.0143
ACTACTAT	0.00213
AATGCATT	-0.0553
CCTAAACC	-0.0919
GCCAGGGA	0.0317
TATCTTCA	-0.0341
TAACGTCA	-0.104
AGGAACAC	0.0304
GAGTACAC	-0.0321
CGCTCACA	0.0558
ATGACAGC	-0.0247
GAGGTCTA	-0.0568
ATACCGAG	-0.0942
ATCTAATC	0.0434

Study 2 — technique: competition protein-binding microarray; molecule type: double-stranded DNA, one strand shown; sample: in vitro; tested at: 2 µM; together with: Pho4 competitor, 0.05 µM; reading: higher = stronger binding; constant ends, left off below: … GTCTTGATTCGCTTGACGCTGCTG
Target: Centromere-binding protein 1, full length, His-tagged (CBF1, Saccharomyces cerevisiae, UniProt P17106, residues 1-351)
Sequence of UniProt P17106 (whole entry, looked up): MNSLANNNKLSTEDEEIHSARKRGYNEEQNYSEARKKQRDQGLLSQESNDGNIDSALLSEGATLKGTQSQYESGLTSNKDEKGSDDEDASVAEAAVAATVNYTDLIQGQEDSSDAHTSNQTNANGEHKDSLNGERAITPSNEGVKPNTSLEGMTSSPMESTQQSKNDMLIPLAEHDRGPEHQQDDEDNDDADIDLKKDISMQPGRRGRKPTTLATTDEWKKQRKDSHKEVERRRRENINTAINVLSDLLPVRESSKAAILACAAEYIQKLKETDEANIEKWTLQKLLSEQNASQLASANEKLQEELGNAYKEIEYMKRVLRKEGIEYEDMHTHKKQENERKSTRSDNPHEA
Setting: whole 60-bp probe, lowest competitor level
Oligonucleotide	fluorescence intensity [a.u.]
CGTCCTAGTGATTGTCACTCGACTTCCATGAGGAAG	77
TTACCCCAACATTACCTCGTGGTGAGTGGAGAATCA	93.3
CAATACCAGGACCTTTACGTGCAAATTTAGAGCGAA	61.9
AAATTACTAAGTTTTCACGTGCCATACCCCGTATGA	1560
TACTGCTCCAGGGGTGACTTGATGTCCTCTGCTGGG	58.6
TGGGGCAAAAACCATCACGGGACTTATGTTTCGGGA	1060
AAAGCGGTAATTTGTAGAGTGGGTGCAGATATCTAT	88.1
CGGGGTTAAGTTTGTCACAGAACTTGCTTGCAGCAG	87.8
CGTCCTAGTGATTTTCACGTGTGATCCATGAGGAAG	735
TGGAATCGAGTGTCGCAATAGACCAAACTGAAGTAC	66.5
GTCTTGTCTCATTGGGTAGTGGGTGTCCCCACTTCA	92.7
CCTTTTCAATGAAAGCACGTTACTGAATTCAGAGAA	289
CGGGGTTAAGTTTGCGAGGTGGGTGGCTTGCAGCAG	62.4
GGGAGACACTTCCGTCACGTGAACCTCTATCTATTT	4480
GGTTGCGACGGAATCCACGTGCAAAACAACATAGTC	1010
CTTTCAGAGGTGGATCTCGTGGCCGATCATTTAGAG	112
CTAACGAAGGTTTGACACGTGGGTGACAAGCCAAGT	936
GCGCAATATGCAGGTACCGTGCCGACTGATTCCCTT	69.1
TGTGGCTGCGTTCGTCACGGGTCCACCTCAGGCAGA	253
AAAGAAGAAGAAACCTCCGTGGGTAATCGTTTGAAT	56.8
CATGATAATCTGCAACACAATCAAGGCCAGATTACT	67.4
TTTGGAAATGCTCACCACGGGAATATGCAAAAAAAA	111
TCTTTGTCTGCTCGAGACGTGGGTAGTTAGCAAGTC	73.2
CAAGGGGGGGCCAGACACGGGCCGCTCTGGTTGGTC	93.7
AGTTCAACAAAACCAAACATGACAATACCACTTATG	79.8

Study 3 — target: CCNE2, cyclin fold, Cln2 fusion (human); technique: yeast growth competition, sequencing; sample: yeast; setting: strong parent motif; reference: not given; reading: higher = stronger binding
Parent: RBL2 docking peptide (human); STTRRRLFVENDS
Substitution	normalised enrichment score
STTRRRLHVENDS [F8H]	-0.415
STTRRRLPVENDS [F8P]	1.26
STTDRRLFVENDS [R4D]	-0.975
SDTRRRLFVENDS [T2D]	2.97
STTRRRLFVINDS [E10I]	1.45
STTRRRLGVENDS [F8G]	-0.111
SHTRRRLFVENDS [T2H]	5.02
STERRRLFVENDS [T3E]	0.92
STTRRRLFVENDV [S13V]	4.51
STTRRCLFVENDS [R6C]	1.72
STTRRRLFAENDS [V9A]	4.22
STTRRRLFVENDP [S13P]	5.14
SKTRRRLFVENDS [T2K]	5.78
STTRARLFVENDS [R5A]	-0.0294
STGRRRLFVENDS [T3G]	2.39
STTRRRLFVLNDS [E10L]	1.78
STCRRRLFVENDS [T3C]	6.06

Study 4 — technique: protein-binding microarray; molecule type: double-stranded DNA, one strand shown; sample: in vitro; tested at: 250 nM; setting: 60-bp whole probe; together with: salmon DNA 0.4 mg/ml; reference: random background probes; reading: higher = stronger binding; constant ends, left off below: GCCTAGCAC … GTCTTGATTCGCTTGACGCTGCTG
Target: Interferon regulatory factor 5, full length, phosphomimetic (IRF5, Homo sapiens, UniProt Q13568-2, residues 1-514, K96S/S451D/S453D/S456D/S462D)
Oligonucleotide	log fluorescence
GACGAACTGAGTCTCGTGACGTGCTAG	-0.328 z-score
CTGCTGGCCTGTTGCTGGAAGTGCTAG	-0.377 z-score
TCAGCTTTCTTTAACTCACTGTGCTAG	1.12 z-score
TTTTACATTTTAAGAAATGTGTGCTAG	1.23 z-score
TTAGGTCTCGGATTCGGTTAGTGCTAG	0.37 z-score
GCCGGTATCGACACTGGGGACGTGCTA	2.09 z-score
TCATGACTCTTTCTGTCACTGTGCTAG	2.81 z-score
AGACACCCCTTTGGTGCCACGTGCTAG	-0.414 z-score
TTAGATCTCGGGTTTCGATTAGTGCTA	6.48 z-score
GACGAACTGCGGACTGGAGACGTGCTA	-0.6 z-score
CTAGATCTCAGTTTCGATTAGTGCTAG	9.07 z-score
TTAGCTTTCGGGACTGGATTAGTGCTA	7.78 z-score
ATATATATATTATATATTTATGTGCTA	0.978 z-score
GTCGATTTCAGTATCGAGACGTGCTAG	5.08 z-score
TTAGAGCTCAGACTGGATTAGTGCTAG	-0.363 z-score
TTAGGTATCTTTTTCCTTTAGTGCTAG	0.603 z-score
TTAGATTTCAGTATCGATCAGTGCTAG	7.91 z-score
GACGATTTCGGGACTGGAAACGTGCTA	1.96 z-score
ATGCTACAATAAGTGTTAGTGTGCTAG	-0.0802 z-score
TCAGTTCTTAGCTTGGGACTGTGCTAG	-0.0869 z-score
GAGGATTTCAGTATCGAGACGTGCTAG	3.03 z-score
ATGGCTTTGCAGATAAATATGTGCTAG	-0.14 z-score
TTAGGTATCGACACTGGGTGAGTGCTA	2.34 z-score
TTAAGTTTCCTTTTCCTTTAGTGCTAG	2.57 z-score
TTAGGGATCGGTCTCGGTTAGTGCTAG	0.373 z-score

Study 5 — technique: DHFR PCA, deep sequencing; sample: yeast; together with: (+)-ABA 0.39 µM; reference: wild-type fitted maximum; reading: higher = stronger binding
Target: ABI1, truncated, D143A, DHFR fusion (Arabidopsis thaliana)
Setting: methotrexate growth selection, single substitutions
Parent: PYL1, truncated, DHFR fusion (Arabidopsis thaliana); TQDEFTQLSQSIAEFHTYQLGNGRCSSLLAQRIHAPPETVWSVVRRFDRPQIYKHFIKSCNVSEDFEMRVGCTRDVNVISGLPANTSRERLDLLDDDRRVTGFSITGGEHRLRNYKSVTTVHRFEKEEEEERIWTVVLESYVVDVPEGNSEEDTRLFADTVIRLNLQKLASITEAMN
Substitution	relative binding score [%]
R111W	-0.00851
I133K	30.1
Q167H	23.5
P83A	25.2
R46F	-24.2
V78Q	-5.31
N177A	67.8
I162D	7.65
F56K	-7.54
R32T	50.7
P37G	-5.66
L82E	-2.07
G23D	19.3
K168S	47.2
V121H	14.2
V43I	57.5
G108Q	-8.61
T160L	17.8
F56S	-11.2
H55Y	34.3

For quick reference, copied from above (study 1):
Oligonucleotide	E-score
CCTTTGAA	0.0353
GACTGTCA	-0.165
ACCCCACC	0.238
GCGAATAA	-0.0584
GGGAGACC	-0.146
ACAACTCT	-0.0195
AGAACTGC	-0.0143
ACTACTAT	0.00213
AATGCATT	-0.0553
CCTAAACC	-0.0919
GCCAGGGA	0.0317
TATCTTCA	-0.0341
TAACGTCA	-0.104
AGGAACAC	0.0304
GAGTACAC	-0.0321
